Experimental data gathered from unrelated publications.
Organism: Pseudomonas aeruginosa

With CCCCCCCC(=O)N[C@@H](CCN)C(=O)N[C@H](C(=O)N[C@@H](CCN)C(=O)N[C@H]1CCNC(=O)[C@H]([C@@H](C)O)NC(=O)[C@H](CCN)NC(=O)[C@H](CCN)NC(=O)[C@H](CC(C)C)NC(=O)[C@@H](Cc2ccc(Br)cc2)NC(=O)[C@H](CCN)NC1=O)[C@@H](C)O the MIC was 0.125 to 0.25 mg/L (broth microdilution; colistin-resistant isolates).
With CC(C)C[C@H](NC(=O)[C@H](CCCCN)NC(=O)[C@H](C)NC(=O)[C@H](CC(C)C)NC(=O)[C@H](CCCCN)NC(=O)[C@H](CCC(N)=O)NC(=O)[C@H](CCCCN)NC(=O)[C@H](CC(C)C)NC(=O)[C@H](CCCCN)NC(=O)[C@H](CCC(N)=O)NC(=O)[C@H](CC(C)C)NC(=O)[C@H](CCCCN)NC(=O)[C@H](C)NC(=O)[C@H](CCCCN)NC(=O)[C@H](CC(C)C)NC(=O)[C@H](CCCCN)NC(=O)[C@H](C)NC(=O)[C@H](CC(C)C)NC(=O)[C@H](CCCCN)NC(=O)[C@H](CCC(N)=O)NC(=O)[C@@H](N)CCCCN)C(N)=O the MIC was 12.3 µM (ATCC 27853; 24 h).
For O=C(c1ccccc1O)c1[nH]c(Cl)c(Cl)c1-n1c(C(=O)c2ccccc2O)cc(Cl)c1Cl, the MIC was over 64 µM (microbial growth; ATCC27853).
For C#CCOc1ccc(CN[C@@]2(C)C[C@H](O[C@H]3[C@H](Oc4c5cc6cc4Oc4ccc(cc4Cl)[C@@H](O)[C@@H](NC(=O)[C@@H](CC(C)C)NC)C(=O)N[C@@H](CC(N)=O)C(=O)N[C@H]6C(=O)N[C@H]4C(=O)N[C@H](C(=O)N[C@H](C(=O)N[C@@H](CCCNC(=N)N)C(N)=O)c6cc(O)cc(O)c6-c6cc4ccc6O)[C@H](O)c4ccc(c(Cl)c4)O5)O[C@H](CO)[C@@H](O)[C@@H]3O)O[C@@H](C)[C@H]2O)cc1OC, the MIC was over 128 mg/L (broth microdilution; ATCC 27853, cation-adjusted Mueller-Hinton broth; 18 to 20 h, 37 °C, 0.002% polysorbate 80).
With C=C1NC(=O)C2C[S+]([O-])CC3NC(=O)C(CSC(C)C(NC(=S)C(Cc4cnc[nH]4)NC(=O)c4csc(C(C)NC(C)=O)n4)C(=O)N[C@H](CC(C)C(=O)NC(=O)CC(C(=O)O)NC(=O)C(C)NC3=O)C(=O)N2)NC(=O)[C@@H]2CCCN2C(=O)[C@@H](CC(C)C)NC1=O (stereo partly shown) the MIC was over 32 mg/L (bacterial growth; ATCC 27853).
With CC[C@H](C)[C@H](NC(=O)[C@@H](CCCNC(=N)N)NC(=O)[C@H](CCCNC(=N)N)NC(=O)[C@H](Cc1c[nH]cn1)NC(=O)[C@H](Cc1c[nH]c2ccccc12)NC(=O)[C@H](CCCNC(=N)N)NC(=O)[C@@H]1CCCN1C(=O)[C@H](CCCNC(=N)N)NC(=O)[C@@H]1CCCN1C(=O)[C@H](CC(C)C)NC(=O)[C@H](Cc1ccc(O)cc1)NC(=O)[C@@H]1CCCN1C(=O)[C@@H]1CCCN1C(=O)[C@H](CCCCN)NC(=O)[C@H](CC(=O)O)NC(=O)[C@@H](N)C(C)C)C(=O)N[C@@H](Cc1ccc(O)cc1)C(=O)N[C@@H](CC(N)=O)C(=O)N[C@H](CCCNC(=N)N)C(N)=O the MIC was 128 mg/L (broth microdilution; DSM 1117; 18 h, 37 °C, 25% MHB2).
CC(C)C[C@@H]1NC(=O)[C@@H](CC(C)C)NC(=O)[C@H](CCN)NC(=O)[C@@H](NC(=O)[C@H](CCN)NC(=O)[C@@H](NC(=O)CCOCCOCCOCCN=[N+]=[N-])[C@@H](C)O)CCNC(=O)[C@H]([C@@H](C)O)NC(=O)[C@H](CCN)NC(=O)[C@H](CCN)NC1=O gave an MIC of 28 µM (broth microdilution; ATCC 13883, cation-adjusted Mueller-Hinton broth).
The MIC of CC[C@H](C)[C@H](NC(=O)[C@H](CCCCN)NC(=O)[C@@H](NC(=O)[C@@H](NC(=O)[C@H](CC(C)C)NC(=O)[C@H](CCCNC(=N)N)NC(=O)[C@@H](NC(=O)[C@H](CC(C)C)NC(=O)[C@H](CCCNC(=N)N)NC(=O)CNC(=O)[C@H](Cc1ccccc1)NC(=O)[C@@H](N)CCCNC(=N)N)[C@@H](C)CC)[C@@H](C)CC)C(C)C)C(=O)N[C@@H](C)C(=O)N[C@@H](CCCNC(=N)N)C(=O)N[C@@H](CCCNC(=N)N)C(=O)N[C@@H](C)C(=O)N[C@@H](Cc1c[nH]cn1)C(=O)N[C@@H](CCCNC(=N)N)C(=O)N[C@@H](C)C(=O)N[C@@H](CCCNC(=N)N)C(=O)N[C@@H](CO)C(=O)N[C@@H](C)C(=O)N[C@H](C(=O)N[C@@H](CCCCN)C(=O)N[C@@H](C)C(=O)N[C@@H](C)C(=O)N[C@@H](CO)C(=O)N[C@@H](CC(N)=O)C(=O)N[C@H](C(=O)N[C@@H](C)C(=O)N[C@@H](C)C(=O)N[C@@H](CC(C)C)C(=O)N[C@@H](C)C(=O)N[C@@H](Cc1c[nH]cn1)C(=O)NCC(=O)N[C@@H](C)C(N)=O)C(C)C)C(C)C is reported as at most 0.064 µM (bacterial growth, broth microdilution; cation-adjusted Mueller Hinton broth; 18 h, 37 °C).
With CCCCCCCC(=O)N[C@@H](CCN)C(=O)N[C@H](C(=O)N[C@@H](CCN)C(=O)N[C@H]1CCNC(=O)[C@H]([C@@H](C)O)NC(=O)[C@H](CCN)NC(=O)[C@H](CCN)NC(=O)[C@H](CCCc2ccccc2)NC(=O)[C@@H](Cc2ccccc2)NC(=O)[C@H](CCN)NC1=O)[C@@H](C)O the MIC was 0.125 to 0.25 mg/L (ATCC 27853).
CC[C@H](C)[C@H](NC(=O)[C@H](Cc1c[nH]c2ccccc12)NC(=O)[C@H](CCCCN)NC(=O)[C@H](CC(C)C)NC(=O)[C@@H](NC(=O)[C@@H](NC(=O)CNC(=O)[C@H](CCCCN)NC(=O)[C@H](Cc1c[nH]cn1)NC(=O)[C@H](CCCCN)NC(=O)[C@H](Cc1c[nH]c2ccccc12)NC(=O)[C@H](C)NC(=O)[C@H](CC(C)C)NC(=O)[C@H](CO)NC(=O)[C@@H](NC(=O)[C@H](Cc1ccc(O)cc1)NC(=O)[C@H](CCCCN)NC(=O)[C@H](CCC(N)=O)NC(=O)CNC(=O)[C@H](CCCCN)NC(=O)[C@@H](NC(=O)[C@H](C)NC(=O)[C@H](CC(C)C)NC(=O)[C@H](Cc1ccccc1)NC(=O)[C@H](CCC(N)=O)NC(=O)[C@@H](NC(=O)[C@H](CC(C)C)NC(=O)[C@H](CCCCN)NC(=O)[C@H](CCSC)NC(=O)[C@H](Cc1ccccc1)NC(=O)[C@H](C)NC(=O)[C@H](C)NC(=O)[C@@H](N)CCSC)[C@@H](C)CC)[C@@H](C)O)C(C)C)[C@@H](C)O)[C@@H](C)CC)C(=O)N[C@@H](CC(N)=O)C(N)=O has an MIC of 12 mg/L (broth microdilution; ATCC 27853; 24 h, 37 °C).
C#CCOc1ccc(CN[C@@]2(C)C[C@H](O[C@H]3[C@H](Oc4c5cc6cc4Oc4ccc(cc4Cl)[C@@H](O)[C@@H](NC(=O)[C@@H](CC(C)C)NC)C(=O)N[C@@H](CC(N)=O)C(=O)N[C@H]6C(=O)N[C@H]4C(=O)N[C@H](C(=O)N[C@H](C(=O)NCC(N)=O)c6cc(O)cc(O)c6-c6cc4ccc6O)[C@H](O)c4ccc(c(Cl)c4)O5)O[C@H](CO)[C@@H](O)[C@@H]3O)O[C@@H](C)[C@H]2O)cc1OC gave an MIC of over 128 mg/L (broth microdilution; ATCC 27853, cation-adjusted Mueller-Hinton broth; 18 to 20 h, 37 °C, 0.002% polysorbate 80).
With CC(C)C[C@H](NC(=O)[C@H](CCCCN)NC(=O)[C@H](CC(C)C)NC(=O)[C@H](CCCCN)NC(=O)C1CCC=CCCC(NC(=O)[C@H](CCCCN)NC(=O)[C@H](CC(C)C)NC(=O)[C@H](CCCCN)NC(=O)[C@@H](N)CC(C)C)C(=O)N[C@@H](CCCCN)C(=O)N2CCC[C@@H]2C(=O)NCC(=O)N[C@@H](CCCCN)C(=O)N1)C(N)=O (stereo partly shown) the MIC was 16 µM (broth microdilution; ATCC 9027, Mueller-Hinton broth; 18 h, 37 °C).
For CN[C@H](CC(C)C)C(=O)N[C@H]1C(=O)N[C@@H](CC(N)=O)C(=O)N[C@H]2C(=O)N[C@H]3C(=O)N[C@H](C(=O)N[C@H](C(=O)O)c4cc(O)cc(O)c4-c4cc3ccc4O)[C@H](O)c3ccc(c(Cl)c3)Oc3cc2cc(c3O[C@@H]2O[C@H](CO)[C@@H](O)[C@H](O)[C@H]2O[C@H]2C[C@](C)(NCc3ccc(OCc4cn(CC(=O)N[C@H](C(=O)N[C@@H](CCN)C(=O)N[C@H]5CCNC(=O)[C@H]([C@@H](C)O)NC(=O)[C@H](CCN)NC(=O)[C@H](CCN)NC(=O)[C@H](CC(C)C)NC(=O)[C@@H](CC(C)C)NC(=O)[C@H](CCN)NC5=O)[C@@H](C)O)nn4)c(OC)c3)[C@H](O)[C@H](C)O2)Oc2ccc(cc2Cl)[C@H]1O, the MIC was 3 µM (broth microdilution; ATCC 27736, cation-adjusted Mueller-Hinton broth).
For CCn1c(-c2ccc(OC)cc2)c(-c2ccc(OC)cc2)n(Cc2c(C)cc(C)cc2C)c1=[Se], the MIC was over 40 µM (broth microdilution; carbapenem-resistant BAA-2108; 24 h).
For CC[C@H](C)[C@H](NC(=O)[C@@H](CCCNC(=N)N)NC(=O)[C@H](CCCNC(=N)N)NC(=O)[C@@H]1CCCN1C(=O)[C@@H]1CCCN1C(=O)[C@H](Cc1ccccc1)NC(=O)[C@@H]1CCCN1C(=O)[C@H](CCCNC(=N)N)NC(=O)[C@@H]1CCCN1C(=O)[C@H](CC(C)C)NC(=O)[C@H](Cc1ccc(O)cc1)NC(=O)[C@@H]1CCCN1C(=O)[C@@H]1CCCN1C(=O)[C@H](CCCCN)NC(=O)[C@H](CC(=O)O)NC(=O)[C@@H](N)C(C)C)C(=O)N[C@@H](Cc1ccc(O)cc1)C(=O)N[C@@H](CC(N)=O)C(=O)N[C@H](CCCNC(=N)N)C(N)=O, the MIC was over 128 mg/L (broth microdilution; DSM 1117; 18 h, 37 °C, 25% MHB2).
The MIC of CN[C@@H]1[C@H](O)[C@H](NC)[C@H]2O[C@]3(O)[C@H](O[C@@H]2[C@H]1O)O[C@H](C)C[C@H]3NC(=O)Cc1cc(Cl)ccn1 is reported as over 200 mg/L (microbial growth, broth dilution; PAO1).

Excerpt of the above:
The MIC of CN[C@@H]1[C@H](O)[C@H](NC)[C@H]2O[C@]3(O)[C@H](O[C@@H]2[C@H]1O)O[C@H](C)C[C@H]3NC(=O)Cc1cc(Cl)ccn1 is reported as over 200 mg/L (microbial growth, broth dilution; PAO1).
